Results pooled from the literature.
Protocols differ between the studies behind these lines. ± marks the error that the study gave.

CSCC[C@H](NC(=O)CNC(=O)[C@H](CC(=O)O)NC(=O)[C@@H](NC(=O)[C@@H](NC(=O)[C@@H](NC(=O)CNC(=O)[C@H](CCC(N)=O)NC(=O)[C@H](CCSC)NC(=O)[C@H](CC(=O)O)NC(=O)[C@H](C)NC(=O)[C@H](C)NC(=O)[C@@H](NC(=O)[C@H](CO)NC(=O)[C@@H](N)CC(C)C)[C@@H](C)O)C(C)C)C(C)C)[C@@H](C)O)C(=O)N[C@@H](C)C(=O)N[C@@H](CO)C(=O)NCC(=O)N[C@@H](CC(C)C)C(=O)N[C@@H](CC(=O)O)C(=O)N[C@@H](CCCCN)C(=O)N[C@@H](CC(=O)O)C(=O)N[C@@H](Cc1ccc(O)cc1)C(=O)N[C@@H](CC(C)C)C(=O)N[C@@H](CCCCN)C(=O)N1CCC[C@H]1C(=O)N[C@@H](CC(=O)O)C(=O)N[C@@H](CC(=O)O)C(=O)O
Tmax (human, serum; intravenous, 2.5 mg/kg, patients, infusion): 4.8 min

O=P([O-])([O-])Oc1ccc(-c2cc(=S)ss2)cc1.[Na+].[Na+]
solubility (HPLC; PBS; 24 h, pH 7.4, 25 °C): 1790 µg/mL

CC(=O)[O-].CN1CCCN2CCN(CCCN(Cc3ccccc3)CC2)CC1.F[P-](F)(F)(F)(F)F.[Co+2]
E1/2 (cyclic voltammetry, measured: first Co2+/Co3+ couple; acetonitrile; relative to: SHE): 0.293 V

C#Cc1c(F)ccc2cc(O)cc(-c3ncc4c(N5CC6CCC(C5)N6C(=O)CC(C)CC(=O)OCC)nc(OC[C@@]56CCCN5C[C@H](F)C6)nc4c3F)c12 (stereo partly shown)
half-life (metabolic stability; mouse, liver microsomes; 1 µM, pH 7.4): 11.1 min

CN(C)C(CNC(=O)Nc1cc(C(F)(F)F)ccc1N1CCOCC1)c1ccncc1 (stereo not shown)
serum direct bilirubin (mouse, serum; intraperitoneal, 360 mg/kg single dose): 0 mg/dL

CC(=O)NCC(=O)NCC(=O)N[C@@H](CCCCNP(=O)(O)O)C(=O)NCC(=O)NCC(N)=O
first-order rate constant (non-enzymatic hydrolysis; 100 µM, pH 7.8, no enzyme): 3.59e-05 s⁻¹

Cc1ccc(C(C)C)cc1.O=C(N=P(c1ccccc1)(c1ccccc1)c1ccccc1)c1ccccn1.[Cl-].[Cl-].[Ru+2]
body weight loss (C57BL/6 mice; 10 mg/kg/day, 7 days): 19%

N=C(N)NCc1ccc(C(=O)NCCCC[C@H](NC(=O)N[C@@H](CCC(=O)O)C(=O)O)C(=O)O)cc1[131I]
tissue uptake (SCID mouse, PC-3 xenografts, liver; 4 h): 4.31 ± 3.08 %ID/g

[2H]C([2H])([2H])C([2H])([2H])C([2H])([2H])OC(C(=O)OC1CCNCC1)(c1ccccc1)c1ccccc1
adverse events (measured: tonsillitis; healthy Japanese male; oral, 18 mg, 16 days, multiple ascending dose): 14.3%

CC(C)[C@H](NC(=O)CNC(=O)[C@H](CCC(N)=O)NC(=O)[C@H](C)N)C(=O)O
discontinuation due to AE (healthy male volunteers; intravenous, 45 mg/kg/h, 2 h, added: LPS 2 ng/kg): 0%

COC1CC(OC2CCC3(C)C4CCC5(C)C(C6=CC(=O)OC6)CCC5(O)C4CCC3(O)C2)OC(C)C1OC1OC(CO)C(O)C(O)C1O (stereo not shown)
effective permeability (in situ single-pass perfusion; rat, proximal jejunum; dose not given, 90 min, pH 6.8): 19 ± 86.3 ×10⁻⁶ cm/s

CCCCCCCCCCCCCCCC(=O)NCCCC[C@H](NC(=O)[C@H](CCC(=O)O)NC(=O)[C@H](Cc1ccc(O)cc1)NC(=O)[C@H](CCC(=O)O)NC(=O)COCC(=O)NCCCOCCOCCOCCCNC(=O)[C@H](Cc1ccccc1)NC(=O)[C@H](CC(N)=O)NC(=O)[C@H](Cc1c[nH]cn1)NC(=O)[C@@H](NC(=O)[C@H](CC(=O)O)NC(=O)[C@H](CCC(N)=O)NC(=O)[C@H](CC(C)C)NC(=O)[C@H](CCCCN)NC(=O)[C@H](CCCCN)NC(=O)[C@H](CCCNC(=N)N)NC(=O)[C@H](CC(C)C)NC(=O)[C@H](Cc1c[nH]c2ccccc12)NC(=O)[C@H](CCC(=O)O)NC(=O)[C@@H](NC(=O)[C@H](CCCNC(=N)N)NC(=O)[C@H](CCC(=O)O)NC(=O)[C@H](CCSC)NC(=O)[C@H](CO)NC(=O)[C@H](CC(N)=O)NC(=O)[C@H](CC(C)C)NC(=O)[C@H](Cc1c[nH]cn1)NC(=O)[C@H](CCCCN)NC(=O)CNC(=O)[C@H](CC(C)C)NC(=O)[C@H](CC(N)=O)NC(=O)[C@H](Cc1c[nH]cn1)NC(=O)[C@H](CCSC)NC(=O)[C@H](CC(C)C)NC(=O)[C@H](CCC(N)=O)NC(=O)[C@@H](NC(=O)[C@H](CCC(=O)O)NC(=O)[C@H](CO)NC(=O)[C@@H](NC(=O)[C@@H](N)CO)C(C)C)[C@@H](C)CC)C(C)C)C(C)C)C(=O)N[C@@H](CCC(=O)O)C(=O)N[C@@H](Cc1ccc(O)cc1)C(=O)N[C@@H](CCC(=O)O)C(N)=O
Tmax ratio (ELISA; CD-1 mice, blood; sc, 10 nmol/kg; relative to: compound over (1-34)): ~6

C[C@@H]1CC[C@H]2[C@@H](C)CO[C@@H]3O[C@@]4(C)CC[C@@H]1[C@]32OO4
stability accuracy (measured: compound; rat, plasma; 800 ng/mL spiked, 30 days, long-term storage at -80 °C): 103%

CSCC[C@@H]1NC(=O)[C@@H]2CSSC[C@H](NC(=O)[C@H](CO)NC(=O)[C@H](C)N)C(=O)N[C@@H](CCCNC(=N)N)C(=O)N[C@@H]([C@@H](C)O)C(=O)N3CCC[C@H]3C(=O)N[C@@H](CCCCN)C(=O)N[C@@H](CC(=O)O)C(=O)N[C@H]3CSSC[C@H](NC(=O)[C@H](CCCCN)NC(=O)[C@H](CCCNC(=N)N)NC(=O)[C@H](CC(N)=O)NC1=O)C(=O)N[C@@H](CCCCN)C(=O)N[C@H]1CSSC[C@H](NC(=O)[C@@H]4CCCN4C(=O)[C@H](CC(=O)O)NC(=O)[C@H](C)NC3=O)C(=O)N[C@@H](C)C(=O)N[C@@H](CCCCN)C(=O)N[C@@H](CCC(=O)O)C(=O)N[C@@H]([C@@H](C)O)C(=O)NCC(=O)N[C@@H](CSSC[C@@H](C(N)=O)NC(=O)[C@H](CCCNC(=N)N)NC(=O)[C@H](CC(N)=O)NC1=O)C(=O)N1CCC[C@H]1C(=O)N[C@@H](Cc1ccc(O)cc1)C(=O)NCC(=O)N[C@@H](CCCCN)C(=O)N2
Phosphorus (DA rat pristane-induced arthritis, serum; subcutaneous, 0.1 mg/kg every other day, 21 days): 5.3 mg/dL

Cc1cc(-c2ccc3ccccc3c2)nnc1NCCN1CCN(C)CC1
half-life (rat; oral, dose not given): 349 min

O=C(O)CC[C@H](NC(=O)O[C@@H](CCCCNC(=O)c1ccc([18F])cc1)C(=O)O)C(=O)O
tissue uptake (mouse, PC-3 PIP/flu xenografts, blood; 90 min): 0.2 ± 0.14 %ID/g

Cc1cc(Nc2nc(C[C@@]3(C(=O)O)CCN(Cc4cccc(Cl)c4F)[C@H](C)C3)cc(C)c2F)n[nH]1
Tmax (beagle dog, plasma; oral, 1 mg/kg, single dose): 25 min

CC(C)[C@H](NC(=O)CNC(=O)[C@H](CCC(N)=O)NC(=O)[C@H](C)N)C(=O)O
subjects with adverse events (Probably drug-related; human; 30 mg/kg, 3 days, thrice daily dosing): 0%

CCCC[C@H]1C(=O)N(C)[C@@H](CCCC)C(=O)N[C@@H](CCCNC(=O)CN2CCN(CC(=O)O)CCN(CC(=O)O)CCN(CC(=O)O)CC2)C(=O)N[C@H](C(=O)NCC(N)=O)CSCC(=O)N[C@@H](Cc2ccc(O)cc2)C(=O)N(C)[C@@H](C)C(=O)N[C@@H](CC(N)=O)C(=O)N2CCC[C@H]2C(=O)N[C@@H](Cc2c[nH]cn2)C(=O)N[C@@H](CC(C)C)C(=O)N(C)CC(=O)N[C@@H](Cc2c[nH]c3ccccc23)C(=O)N[C@@H](CO)C(=O)N[C@@H](Cc2c[nH]c3ccccc23)C(=O)N1C [gallium-68 labelled]
tumour uptake (biodistribution; NOD/SCID mice, CHO xenograft, CHO tumour, PD-L1-negative; 60 min post injection): 3 ± 0.96 %ID/g

CC[C@H](C)C(=O)N1CCC(NC(=O)Nc2ccc(OC(F)(F)F)c(F)c2)CC1
subjects with treatment-emergent photophobia (healthy volunteers, both sexes; oral, 8 mg, fed state): 7.1%

C/C=C/C=C/C/C=C/CCCCCCCc1cccc(O)c1O
tissue concentration (female Kunming mice, tumour-bearing, spleen; intravenous, 10 mg/kg, 4 h): 6280 ± 650 ng/g

COc1ccc(-c2oc3ccc(-c4cc(OC)c(OC)c(OC)c4)cc3c2C#CC2(O)CCCCC2)cc1
half-life (metabolic stability; mouse, liver microsomes): > 30 min

CCCC[C@H](NC(=O)CCOCCOCCNC(=O)CN1CCN(CC(=O)O)CCN(CC(=O)O)CCN(CC(=O)O)CC1)C(=O)N[C@H]1CC(=O)NCCCC[C@@H](C(N)=O)NC(=O)[C@H](Cc2c[nH]c3ccccc23)NC(=O)[C@H](CCCNC(=N)N)NC(=O)[C@@H](Cc2ccccc2)NC(=O)[C@H](Cc2c[nH]cn2)NC1=O [gallium-68 labelled]
intact compound (radio-HPLC; mouse, plasma; intravenous, 8 to 12 MBq, 5 min post injection): > 99%

CC[C@@H]1C[C@]1(NC(=O)[C@@H]1C[C@@]2(CN1C(=O)[C@@H](NC(=O)[C@@H](NC(=O)[C@@H]1CCCCN1C(C)C)C1CCCCC1)C(C)(C)C)C(C)(C)C21CCC1)C(=O)NS(=O)(=O)N1CCCC1
subjects with adverse events (human; oral, 1000 mg single dose): 66.7%

CCCCCCCCCCCCCC(=O)N[C@H](CCN)C(=O)N[C@@H]1C(=O)N[C@@H](CCN)C(=O)N[C@@H](CC(C)C)C(=O)N[C@@H](CCN)C(=O)N[C@H](Cc2ccccc2)C(=O)N[C@@H](CC(C)C)C(=O)N[C@@H](CCN)C(=O)N[C@H](CCN)C(=O)N[C@@H](C(C)C)C(=O)N[C@@H](CC(=O)O)C(=O)O[C@@H]1C
half-life ratio (rat; relative to: subcutaneous over intravenous): 2.4 fold

COc1ccc(C)cc1NC(=O)OC1CC2CCCC(C1)N2Cc1ccc(CC[18F])cc1 (stereo not shown)
tumour uptake (BALB/c mice EMT6 tumour, tumour; 1 h): 3.47 ± 0.51 %ID/g

CC(C)[C@@H]1NC(=O)[C@H](Cc2ccccc2)NC(=O)[C@H](Cc2ccc(O)cc2)NC(=O)CCSSC[C@@H](C(=O)N2CCC[C@H]2C(=O)N[C@H](CCCNC(=N)N)C(=O)NCC(N)=O)NC(=O)[C@H](CCC(N)=O)NC1=O
fibrinogen (Wistar rat, blood; intravenous, 1 µg/kg single dose, 72 h): 206 ± 56.7 mg/dL

CC[C@H](C)[C@@H]1NC(=O)[C@H](CCCCN)NC(=O)[C@H](CCCCN)NC(=O)[C@H](Cc2ccc(O)cc2)NC(=O)[C@H](CC(C)C)NC(=O)[C@@H]2CCCN2C(=O)[C@H](C)NC(=O)CNC(=O)CNC(=O)[C@H](CO)NC(=O)CNC(=O)CNC(=O)[C@H](CO)NC(=O)[C@H](CCC(=O)O)NC(=O)[C@H](CC(C)C)NC(=O)[C@H](CC(C)C)NC(=O)[C@H](CCCCN)NC(=O)[C@H](CCCCN)NC(=O)[C@H]([C@@H](C)CC)NC(=O)[C@H]([C@@H](C)CC)NC(=O)[C@H](CCCCN)NC(=O)[C@H](CCCCN)NC(=O)[C@H](Cc2ccc(O)cc2)NC(=O)[C@H](CC(C)C)NC(=O)[C@@H]2CCCN2C(=O)[C@H](C)NC(=O)CNC(=O)[C@@H]2CSSC[C@H](NC(=O)[C@H](CC(C)C)NC(=O)[C@H](CCCCN)NC(=O)[C@H](CCCCN)NC(=O)[C@H]([C@@H](C)CC)NC1=O)C(=O)N[C@@H](CCC(N)=O)C(=O)N[C@@H](CC(N)=O)C(=O)NCC(=O)N2
HC10 (hemolysis; uninfected human erythrocytes; 1 h): > 128 µM

Cc1ccc(/C=C/C(=O)O)cc1-c1cc2c(cc1C)C(C)(C)CCC2(C)C
blood triglycerides (Sprague-Dawley rat, male; oral, 100 mg/kg, 12 h, sesame oil vehicle): 269 ± 102 mg/dL

CCCCCCCC(=O)SCC/C=C/[C@@H]1CC(=O)NCc2nc(cs2)C2=N[C@@](C)(CS2)C(=O)N[C@@H](C(C)C)C(=O)N1
alpha half-life (mouse NIH Swiss, female; intravenous, 5 mg/kg): 2.8 min

CCCCCCCCCCCCC(=O)O.O=C1CCCC2C3CCCN4CCCC(CN12)C34 (stereo not shown)
standard entropy of aggregation (electrical conductivity; water; 303.15 K): 108 J/(mol·K)

Some of these lines once more:
N=C(N)NCc1ccc(C(=O)NCCCC[C@H](NC(=O)N[C@@H](CCC(=O)O)C(=O)O)C(=O)O)cc1[131I]
tissue uptake (SCID mouse, PC-3 xenografts, liver; 4 h): 4.31 ± 3.08 %ID/g

[2H]C([2H])([2H])C([2H])([2H])C([2H])([2H])OC(C(=O)OC1CCNCC1)(c1ccccc1)c1ccccc1
adverse events (measured: tonsillitis; healthy Japanese male; oral, 18 mg, 16 days, multiple ascending dose): 14.3%

CC(C)[C@H](NC(=O)CNC(=O)[C@H](CCC(N)=O)NC(=O)[C@H](C)N)C(=O)O
discontinuation due to AE (healthy male volunteers; intravenous, 45 mg/kg/h, 2 h, added: LPS 2 ng/kg): 0%
